Results collected from several papers.
Parts stem from different laboratories: compare values within a part only. Substitutions count along the parent as printed.

Block 1
Target: Histone acetyltransferase KAT6A, both winged helices, GST fusion (KAT6A, Homo sapiens, UniProt Q92794, residues 1-181)
Method: protein binding microarray
Form: double-stranded DNA, one strand shown
Medium: in vitro
Tested at: not given
Notes: 8-mer, flanks averaged, mean of 2 arrays, mostly near background
Reference: not given
Direction: higher = stronger binding
Target sequence (chain): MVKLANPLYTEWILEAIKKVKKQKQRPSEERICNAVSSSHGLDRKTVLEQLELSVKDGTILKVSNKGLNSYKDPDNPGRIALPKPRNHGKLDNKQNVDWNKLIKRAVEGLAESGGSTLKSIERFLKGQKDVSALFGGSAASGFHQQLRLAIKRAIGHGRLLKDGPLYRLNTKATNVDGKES
`GCGTGAGA` has an E-score of 0.143.
With `CCTATAAC` the E-score was -0.18.
`AGGAGGCC` gave an E-score of -0.197.
The E-score of `ATCTATCG` is reported as 0.00178.
`AGCCGACA` has an E-score of 0.0699.
For `CGAAAGGA`, the E-score was 0.087.
For `ACTATCGG`, the E-score was 0.123.
The E-score of `CCACGGAG` is reported as 0.148.
With `AGGATGTG` the E-score was -0.147.

Block 2
Target: Max-binding protein MNT, bHLH-zipper, MAX partner unstated (MNT, Homo sapiens, UniProt Q99583, residues 220-300)
Method: protein-binding microarray
Form: double-stranded DNA, one strand shown
Medium: in vitro
Tested at: not given
Notes: k-mer, scored over probes, only values ≥0.25
Direction: higher = stronger binding
Construct (chain): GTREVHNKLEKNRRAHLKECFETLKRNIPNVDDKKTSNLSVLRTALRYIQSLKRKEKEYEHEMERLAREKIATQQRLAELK
With `CCACCTGG` the E-score was 0.348.
The E-score of `AACCCCGC` is reported as 0.253.
For `GCATGCCC`, the E-score was 0.399.
With `CATGCTAG` the E-score was 0.376.
`ACGCGTTG` gave an E-score of 0.261.
`TCCACGCA` gave an E-score of 0.313.
`AGAACGTG` has an E-score of 0.392.

Block 3
Target: CCNA1, cyclin fold, Cln2 fusion (human)
Method: yeast growth competition, sequencing
Medium: yeast
Notes: weak parent motif
Reference: not given
Direction: higher = stronger binding
Parent: CDC25A docking peptide (human); PPHRRRLLFACSP; partner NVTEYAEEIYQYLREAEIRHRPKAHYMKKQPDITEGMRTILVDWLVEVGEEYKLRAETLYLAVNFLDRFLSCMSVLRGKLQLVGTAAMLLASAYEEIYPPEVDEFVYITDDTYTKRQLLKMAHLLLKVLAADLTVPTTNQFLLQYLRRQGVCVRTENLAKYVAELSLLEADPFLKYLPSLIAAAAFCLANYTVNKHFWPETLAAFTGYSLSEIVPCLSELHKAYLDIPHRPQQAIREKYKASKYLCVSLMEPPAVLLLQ
Under “normalised enrichment score”, `P2K` is recorded as 0.271.
`P1L` — result for “normalised enrichment score”: 0.292.
For `P2R`, “normalised enrichment score” read 0.435.
For `S12T`, “normalised enrichment score” read 0.0966.
`S12D` — result for “normalised enrichment score”: 0.321.
For `H3C`, “normalised enrichment score” read 0.516.
`S12V` — result for “normalised enrichment score”: 0.399.

Other studies, line by line
`PhoQ, residues 284 288 289 292 302 303 TLASMF` gave a fold induction of 14.1 (PhoP, residues 12 14 15 18 19 HLGGL (Escherichia coli, UniProt P23836); Sort-seq, measured: YFP reporter; E. coli; PhoQ-PhoP variant library, with: 10 µM Mg2+; reference: high Mg2+ state, higher = stronger signaling).

A few entries again (block 3):
For `H3C`, “normalised enrichment score” read 0.516.
`P1L` — result for “normalised enrichment score”: 0.292.
